Published values gathered from unrelated publications.
± marks the error that the study gave.

For CCCC(CCC)NC(=O)c1ccc(O)c(O)c1, the Tmax was 0.25 h (female Sprague-Dawley rat, plasma; oral, 20 mg/kg of parent drug).
Cc1cc2c(cc1C1(c3ncc(C(=O)O)cn3)CC1)C(C)(C)CCC2(C)C has a Tmax of 1 h (rat Sprague-Dawley male, plasma; oral, 100 mg/kg, sesame oil).
COc1cc2oc(-c3ccc(O)cc3)cc(=O)c2c(O)c1[C@@H]1O[C@H](CO)[C@@H](O)[C@H](O)[C@H]1O[C@@H]1O[C@H](CO)[C@@H](O)[C@H](O)[C@H]1O has a Tmax of 0.23 ± 0.09 h (male Sprague-Dawley rat, PCPA-induced insomnia, plasma; oral, 6.8 g/kg).
The Tmax of O=C(O)CN1CCN(CC(=O)O)CCN(C(CCC(=O)NCc2ccc(NC(=S)NCCNC(=O)CCCc3ccc(I)cc3)cc2)C(=O)O)CC1 (stereo not drawn) is reported as 1.25 h (dynamic PET/CT; Sprague-Dawley rats female, lumbar spinal canal L1-L2; intrathecal lumbar infusion, median).
For CC(C)C[C@H](NC(=O)[C@H](CCCCN)NC(=O)CNC(=O)[C@H](CC(C)C)NC(=O)[C@@H](NC(=O)[C@@H]1CSSC[C@H](N)C(=O)N[C@@H](CO)C(=O)N[C@@H](CC(N)=O)C(=O)N[C@@H](CC(C)C)C(=O)N[C@@H](CO)C(=O)N[C@@H]([C@@H](C)O)C(=O)N1)C(C)C)C(=O)N[C@@H](CO)C(=O)N[C@@H](CCC(N)=O)C(=O)N[C@@H](CCC(=O)O)C(=O)N[C@@H](CC(C)C)C(=O)N[C@@H](Cc1c[nH]cn1)C(=O)N[C@@H](CCCCN)C(=O)N[C@@H](CC(C)C)C(=O)N[C@@H](CCC(N)=O)C(=O)N[C@H](C(=O)N[C@@H](Cc1ccc(O)cc1)C(=O)N1CCC[C@H]1C(=O)N[C@@H](CCCNC(=N)N)C(=O)N[C@H](C(=O)N[C@@H](CC(N)=O)C(=O)N[C@H](C(=O)NCC(=O)N[C@@H](CO)C(=O)NCC(=O)N[C@H](C(=O)N1CCC[C@H]1C(N)=O)[C@@H](C)O)[C@@H](C)O)[C@@H](C)O)[C@@H](C)O, the Tmax was 0.25 h (ELISA; hairless Sprague-Dawley rat, male, serum; subcutaneous, 3 µg, coating dissolved from microneedles).
With CCNC(=O)[C@@H]1CCCN1C(=O)[C@H](CCCNC(=N)N)NC(=O)[C@H](CC(C)C)NC(=O)[C@@H](CC(C)C)NC(=O)[C@H](Cc1ccc(O)cc1)NC(=O)[C@H](CO)NC(=O)[C@H](Cc1c[nH]c2ccccc12)NC(=O)[C@H](Cc1c[nH]cn1)NC(=O)[C@@H]1CCC(=O)N1 the Tmax was ≤ 1 h (Sprague-Dawley rat, male, plasma; subcutaneous, 12.5 mg/kg).
Cc1cc(-c2ccc(NC(=S)Nc3ccc(CNC(=O)CCC(C(=O)O)N4CCN(CC(=O)O)CCN(CC(=O)O)CC4)cc3)c(C)c2)ccc1/N=N/c1ccc2c(S(=O)(=O)O)cc(S(=O)(=O)O)c(N)c2c1O (stereo not drawn) has a Tmax of 1.25 h (dynamic PET/CT; Sprague-Dawley rats female, lumbar spinal canal L1-L2; intrathecal lumbar infusion, median).
The Tmax of CC(=O)[CH](C(C)=O)[Pt-2]1([S+](C)C)[O]C(C)=CC(C)=[O+]1 (stereo not drawn) is reported as 0.5 h (measured: platinum; rat, whole blood; intravenous, dose not given).
With N[C@H](COc1ccccc1C(F)(F)F)c1ccccc1 the Tmax was 0.17 h (male Sprague-Dawley rat; intravenous, 5 mg/kg).
The Tmax of CC1(C)C2CCC1(C)C(OC(=O)/C=C/c1ccc(O)c(O)c1)C2 (stereo not drawn) is reported as 0.53 ± 0.28 h (Sprague-Dawley rat, plasma; oral gavage, 30 mg/kg).
CCCC(CCC)NC(=O)c1ccc(OC2OC(C(=O)O)C(O)C(O)C2O)c(OC)c1 (stereo not drawn) gave a Tmax of 2.8 h (female Sprague-Dawley rat, plasma; oral, 50 mg/kg of parent drug).
Cc1noc(C)c1Cn1cc(N2C(=O)CN(Cc3cccc(OS(=O)(=O)O)c3)C2=O)cn1 has a Tmax of 0.5 h (rat Sprague-Dawley male, plasma; oral, 10 mg/kg of parent drug).
The Tmax of CCCC(CCC(=O)O)NC(=O)c1ccc2c(c1)OCO2 (stereo not drawn) is reported as 1 h (female Sprague-Dawley rat, plasma; oral, 50 mg/kg of parent drug).
For `Ac-CSNLSTCXLGKLSQDLHRLQTYPKTDVGANAP-NH2 (N-acetyl, C-amide)`, the Tmax was 8 h (ELISA; peptide, high-fat diet Sprague Dawley rats, plasma; subcutaneous, 4 nmol/kg).
CC/C=C\C/C=C\C/C=C\C/C=C\C/C=C\CCCCOC(CC)C(=O)O (stereo not drawn) has a Tmax of 3 h (Wistar rat, male, mesenteric lymph; oral, 100 mg/kg).
C=C(c1cc(F)c(C(=O)O)c(F)c1)c1cc2c(cc1C)C(C)(C)CCC2(C)C has a Tmax of 1 h (rat Sprague-Dawley male, plasma; oral, 100 mg/kg, sesame oil).
For Oc1ccc2ccccc2c1/N=N/c1ccc(/N=N/c2ccccc2)cc1, the Tmax was ~4.2 h (Sprague-Dawley rats both sexes, whole blood; oral, 50 mg/kg).
CCCC(CCC)NC(=O)c1ccc(OS(=O)(=O)O)c(OC)c1 gave a Tmax of 5 h (male Sprague-Dawley rat, plasma; oral, 200 mg/kg of parent drug).
With CCCCC/C=C/C=C/C(=O)NCC(C)C the Tmax was 0.45 ± 0.21 h (rat, sham-operated, plasma; oral, 50 mg/kg).
COC(=O)C(CSC1CC(=O)N(CCC(=O)O)C1=O)NC(=O)CCC(NC(=O)c1ccc(NCc2cnc3nc(N)nc(N)c3n2)cc1)C(=O)O (stereo not drawn) gave a Tmax of ~1 h (female Lewis rats, plasma; subcutaneous, 500 nmol/kg of parent drug).
COC(=O)/C=C/C(=O)c1ccc(OC)cc1 gave a Tmax of ~0.6 h (Sprague-Dawley rat, plasma; oral, 200 mg/kg).
The Tmax of Cc1noc(C)c1Cn1cc(N2C(=O)CN(Cc3cccc(O[C@@H]4O[C@H](C(=O)O)[C@@H](O)[C@H](O)[C@H]4O)c3)C2=O)cn1 is reported as 0.5 h (rat Sprague-Dawley male, plasma; oral, 30 mg/kg of parent drug).
The Tmax of Cc1ccc(OCC(=O)O)cc1 is reported as 1 h (Sprague-Dawley rat Crl:CD(SD), female, plasma; oral, 10 mg/kg/day of parent drug, day 90, 90-day repeated dosing).
Cc1ccccc1/N=N/c1ccc(/N=N/c2c(O)ccc3ccccc23)c(C)c1 has a Tmax of ~4.34 h (Sprague-Dawley rats both sexes, whole blood; oral, 50 mg/kg).
